Measurements pooled from the literature.
Numbered parts are unrelated; each lists some results of a single study. Substitutions count along the parent as printed.

Sample 1
Target: Ras GTPase-activating protein-binding protein 1, C-terminal RGG region (G3BP1, Homo sapiens, UniProt Q13283)
Chain of UniProt Q13283 (whole entry, looked up): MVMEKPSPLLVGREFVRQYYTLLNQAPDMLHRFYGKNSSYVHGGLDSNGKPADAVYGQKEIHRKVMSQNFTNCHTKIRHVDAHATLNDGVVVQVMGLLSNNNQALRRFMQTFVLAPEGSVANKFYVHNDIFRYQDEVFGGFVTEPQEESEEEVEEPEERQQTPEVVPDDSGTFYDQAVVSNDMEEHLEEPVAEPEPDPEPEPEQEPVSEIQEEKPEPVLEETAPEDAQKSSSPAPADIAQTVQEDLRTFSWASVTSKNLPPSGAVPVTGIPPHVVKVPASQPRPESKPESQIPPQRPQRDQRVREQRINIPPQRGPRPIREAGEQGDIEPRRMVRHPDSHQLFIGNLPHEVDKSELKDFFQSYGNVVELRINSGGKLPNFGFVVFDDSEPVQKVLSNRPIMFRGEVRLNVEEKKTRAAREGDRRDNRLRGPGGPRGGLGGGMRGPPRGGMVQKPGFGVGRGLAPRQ
Technique: RNA Bind-n-Seq
Molecule type: RNA
Medium: in vitro
Tested at: 1 µM
Setting: whole 134-nt RNA, ends assumed
With: 150 mM KCl
Baseline: input library
Reading: higher = stronger binding
Shared flanks, not repeated: GGGAGUUCUACAGUCCGACGAUC … UGGAAUUCUCGGGUGUCAAGG
Sequence | log2 enrichment
GUCCUGUGCUACACAUCGUAUGUACCGAAUCGGUUUUUUGGGUUUUUUGGUUUUUUGGGAAAGUAUUAUGUUACGCCGUUCGGAUCUGCA | -1.49
UUUGCAGAGCAGUCUCUGAUGAAGAAUGCCAUAAAAACAUCGGAGGAGUCAUGGAUUGAACAGCAGAUGCUAGAAGACAAGAAACGGGCC | -2.06
GUCCUGUGCUACACAUCGUAUGUACCGAAUCGGGGUUUUGGGGUUUUGGGUUUUGGGGAAAGUAUUAUGUUACGCCGUUCGGAUCUGCAC | 0.796
AAGUCCUGUGCUACACAUCGUAUGUACCGAAUCGGGCCCCGGGCCCCGGGCCCCGGGAAAGUAUUAUGUUACGCCGUUCGGAUCUGCACU | -2.57
CCUGUGCUACACAUCGUAUGUACCGAAUCAAACCCCCCCAAACCCCCAAAUUUUUUUAAAAAAGUAUUAUGUUACGCCGUUCGGAUCUGC | -1.04
UCAAGUCCUGUGCUACACAUCGUAUGUACCGAAUCGGGAAAGGGUUUGGGAGGGAAAGUAUUAUGUUACGCCGUUCGGAUCUGCACUUCC | 1.99
CACAGACAACACGCACCCACACAGACACAGAGGGAAGAGGUUGGGAUGGGGACAGGGUGCACAGCAGGGCGGGGUAGGACCCCAGCCCCU | -0.35
CCUCAAGUCCUGUGCUACACAUCGUAUGUACCGAAUCGGGUGGGAGGGAGGGAAAGUAUUAUGUUACGCCGUUCGGAUCUGCACUUCCAG | 1.6
CUCAAGUCCUGUGCUACACAUCGUAUGUACCGAAUCGGUUGGGGUUGGGGUUGGAAAGUAUUAUGUUACGCCGUUCGGAUCUGCACUUCC | 0.118
AGUCCUGUGCUACACAUCGUAUGUACCGAAUCGGUUUUUGGGUUUUUGGUUUUUGGGGAAAGUAUUAUGUUACGCCGUUCGGAUCUGCAC | -1.38
UGGGAGGUGGAUUUUGUUUAUUUUUUUAGCUCAUUUCCAGGGGUGGGAAUUUUUUUUUAAUAUGUGUCAUGAAUAAAGUUGUUUUUGAGA | 2.98

Sample 2
Target: Prothrombin, mature alpha-thrombin (F2, Homo sapiens, UniProt P00734)
Technique: aptamer microarray, sandwich
Molecule type: DNA with 2'F-ANA
Medium: in vitro
Tested at: 200 nM
Setting: whole 15-mer aptamer, many near background
With: Cy3 exosite-II aptamer, 400 nM
Reading: higher = stronger binding
Sequence: GGTTGGTGTGGTTGG
Modification | mean fluorescence intensity
2'F-ANA at 1 3 6 7 8 10 13 | 79.5 a.u.
2'F-ANA at 1 2 3 5 6 7 8 9 12 13 14 | 55.5 a.u.
2'F-ANA at 1 2 3 5 10 11 13 14 | 45.1 a.u.
2'F-ANA at 1 4 6 8 | 143 a.u.
2'F-ANA at 1 2 7 9 10 11 13 14 15 | 75.2 a.u.
2'F-ANA at 1 3 4 8 9 10 15 | 59.1 a.u.
2'F-ANA at 2 3 4 6 10 11 12 13 14 15 | 149 a.u.
2'F-ANA at 5 6 9 10 15 | 45.1 a.u.
2'F-ANA at 1 2 4 5 7 8 10 12 13 | 61.2 a.u.
2'F-ANA at 1 6 8 9 14 | 108 a.u.
2'F-ANA at 2 4 8 12 14 | 168 a.u.
2'F-ANA at 1 5 7 8 10 11 | 47.1 a.u.
2'F-ANA at 1 3 5 7 9 10 11 12 13 15 | 50.3 a.u.
2'F-ANA at 1 2 3 5 6 7 8 9 10 14 | 50.2 a.u.
2'F-ANA at 1 2 3 6 7 13 14 15 | 66 a.u.
2'F-ANA at 3 4 5 9 11 12 14 | 49.9 a.u.
2'F-ANA at 1 3 4 5 9 10 13 14 | 45.8 a.u.
2'F-ANA at 1 5 7 9 11 12 14 | 45.9 a.u.
2'F-ANA at 2 6 8 9 12 14 | 146 a.u.
2'F-ANA at 2 4 5 6 7 10 13 14 | 55.8 a.u.
2'F-ANA at 1 4 5 9 14 15 | 42 a.u.
2'F-ANA at 1 4 6 9 10 12 13 14 | 61.7 a.u.
2'F-ANA at 6 8 11 12 15 | 702 a.u.

Sample 3
Target: UBE2V2 UBC core domain (UniProt Q15819)
Chain of UniProt Q15819 (whole entry, looked up): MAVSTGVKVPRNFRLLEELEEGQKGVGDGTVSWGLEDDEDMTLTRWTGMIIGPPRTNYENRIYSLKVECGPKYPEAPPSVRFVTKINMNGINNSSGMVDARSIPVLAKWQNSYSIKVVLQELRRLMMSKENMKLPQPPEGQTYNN
Technique: yeast two-hybrid
Medium: yeast
Setting: mostly zero background
Baseline: not given
Reading: higher = stronger interaction
B1: ANAPC11 RING domain (UniProt Q9NYG5); chain GICRMAFNGCCPDCKVPGDDCPLVWGQCSHCFHMHCILKWLHAQQVQQHCPMCRQEWKFKE
B2: MYCBP2 RING domain (UniProt O75592); chain TSLKQDADDMCMICFTEALSAAPAIQLDCSHIFHLQCCRRVLENRWLGPRITFGFISCPICKNKINHIVLKD
B3: MKRN2 RING domain (UniProt Q9H000); chain FAFQASQDKVCSICMEVILEKASASERRFGILSNCNHTYCLSCIRQWRCAKQFENPIIKSCPECRVISEFVIPSV
B4: RNF31 RING domain (UniProt Q96EP0); chain AFLRRLLAQECAVCGWALPHNRMQALTSCECTICPDCFRQHFTIALKEKHITDMVCPACGRPDLTDDTQLL
B5: RNF166 RING domain (UniProt Q96A37); chain GDSGLEAQYTCPICLEVYHRPVAIGSCGHTFCGECLQPCLQVPSPLCPLCRLPFDPKKVDK
B6: RNF187 RING domain (UniProt Q5TA31); chain ALPAGPAEAACALCQRAPREPVRADCGHRFCRACVVRFWAEEDGPFPCPECADDCWQRAVEP
B7: TRIM22 RING domain (UniProt Q8IYM9); chain VKVDIEKEVTCPICLELLTEPLSLDCGHSFCQACITAKIKESVIISRGESSCPVCQTRFQPGNLRP
B8: RNF183 RING domain (UniProt Q96D59); chain EQQGRELEAECPVCWNPFNNTFHTPKMLDCCHSFCVECLAHLSLVTPARRRLLCPLCRQPTVLASGQP
Sequence | lacZ reporter activity
B1 (ANAPC11 RING domain) | 0
B2 (MYCBP2 RING domain) | 0
YCEMGSTFQLCKICAENDKDVKIEPCGHLMCTSCLTAWQESDGQGCPFCRCEIKGTEPII (CBLB RING domain (UniProt Q13191)) | 0
AEADPLGRFTCPVCLEVYEKPVQVPCGHVFCSACLQECLKPKKPVCGVCRSALAPGVRAV (RNF114 RING domain (UniProt Q9Y508)) | 0
B3 (MKRN2 RING domain) | 0
B4 (RNF31 RING domain) | 0
PEELAVNNDDCAICWDSMQAARKLPCGHLFHNSCLRSWLEQDTSCPTCRMSLNIADNNR (AMFR RING domain (UniProt Q9UKV5)) | 0
B5 (RNF166 RING domain) | 0
B6 (RNF187 RING domain) | 0
B7 (TRIM22 RING domain) | 0
B8 (RNF183 RING domain) | 0

Sample 4
Target: ABI1, truncated, D143A, DHFR fusion (Arabidopsis thaliana)
Technique: DHFR PCA, deep sequencing
Medium: yeast
Setting: methotrexate growth selection, single substitutions
With: (+)-ABA 0.11 µM
Baseline: wild-type fitted maximum
Reading: higher = stronger binding
Starting sequence: PYL1, truncated, DHFR fusion (Arabidopsis thaliana); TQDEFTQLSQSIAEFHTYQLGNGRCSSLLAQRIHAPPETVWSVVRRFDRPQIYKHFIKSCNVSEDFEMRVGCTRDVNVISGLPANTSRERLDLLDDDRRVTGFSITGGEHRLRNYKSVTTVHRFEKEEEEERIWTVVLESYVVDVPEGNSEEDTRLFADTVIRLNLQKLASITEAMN; partner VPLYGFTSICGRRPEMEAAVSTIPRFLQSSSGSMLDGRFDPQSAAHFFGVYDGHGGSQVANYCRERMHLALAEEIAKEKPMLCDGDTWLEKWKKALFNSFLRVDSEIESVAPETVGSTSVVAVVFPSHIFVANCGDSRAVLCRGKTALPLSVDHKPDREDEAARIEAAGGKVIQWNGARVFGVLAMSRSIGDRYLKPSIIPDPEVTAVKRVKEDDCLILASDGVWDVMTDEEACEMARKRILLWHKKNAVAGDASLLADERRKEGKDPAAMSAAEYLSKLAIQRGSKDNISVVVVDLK
Variant | relative binding score [%]
F15R | -8.06
V145D | -12
Q2D | 53.3
G21M | 23.7
D3T | 26
R74K | -1.51
T73D | -1.36
F157M | 6.51
S140G | 2.66
I52L | 46
T73E | 39.2
H110C | 39.6
Q19R | 33.6

Sample 5
Target: CCNA2, cyclin fold, Cln2 fusion (human)
Technique: yeast growth competition, sequencing
Medium: yeast
Setting: strong parent motif
Baseline: not given
Reading: higher = stronger binding
Starting sequence: SCAPER docking peptide (human); SNARRSLNFGGST
Variant | normalised enrichment score
R5P | 0.39
S1P | 6.5
T13Q | 6.17
N8T | 5.06
G11D | 6.62
G11K | 7.04
F9S | 0.583
A3S | 4.38
S6G | 4.85

For quick reference, copied from above (sample 2):
Modification | mean fluorescence intensity
2'F-ANA at 2 4 8 12 14 | 168 a.u.
2'F-ANA at 1 5 7 8 10 11 | 47.1 a.u.
2'F-ANA at 1 3 5 7 9 10 11 12 13 15 | 50.3 a.u.
2'F-ANA at 1 2 3 5 6 7 8 9 10 14 | 50.2 a.u.
2'F-ANA at 1 2 3 6 7 13 14 15 | 66 a.u.
2'F-ANA at 3 4 5 9 11 12 14 | 49.9 a.u.
